Assay results from different studies.
Lines come from different studies, so protocols differ. “And” joins repeats or separate records; there may be more than shown. Numbers after ± are the reported error.

| SMILES | assay | test system | setting | scale | measurement | value |
| --- | --- | --- | --- | --- | --- | --- |
| CCO[C@H]1CCN(Cc2c(OC)cc(C)c3[nH]ccc23)[C@H](c2ccc(C(=O)O)cc2)C1 | – | PNH patients, active haemolysis | oral, 25 mg, 4 weeks, treatment | – | incidence of abdominal pain | 0% |
| CC[C@H](C)[C@H](NC(=O)[C@H](Cc1ccccc1)NC(=O)[C@H](CCC(=O)O)NC(=O)[C@H](CCCCNC(=O)COCCOCCNC(=O)COCCOCCNC(=O)CC[C@H](NC(=O)CCCCCCCCCCCCCCCCC(=O)O)C(=O)O)NC(=O)[C@H](C)NC(=O)[C@H](C)NC(=O)[C@H](CCC(N)=O)NC(=O)CNC(=O)[C@H](CCC(=O)O)NC(=O)[C@H](CC(C)C)NC(=O)[C@H](Cc1ccc(O)cc1)NC(=O)[C@H](CO)NC(=O)[C@H](CO)NC(=O)[C@@H](NC(=O)[C@H](CC(=O)O)NC(=O)[C@H](CO)NC(=O)[C@@H](NC(=O)[C@H](Cc1ccccc1)NC(=O)[C@@H](NC(=O)CNC(=O)[C@H](CCC(=O)O)NC(=O)C(C)(C)NC(=O)[C@@H](N)Cc1cnc[nH]1)[C@@H](C)O)[C@@H](C)O)C(C)C)C(=O)N[C@@H](C)C(=O)N[C@@H](Cc1c[nH]c2ccccc12)C(=O)N[C@@H](CC(C)C)C(=O)N[C@H](C(=O)N[C@@H](CCCNC(=N)N)C(=O)NCC(=O)N[C@@H](CCCNC(=N)N)C(=O)NCC(=O)O)C(C)C | – | human, type 2 diabetes | dose not given, back pain, during treatment | relative to: subjects | incidence of adverse events | 13.3% |
| CN(CCC#N)C1CCN(C(=O)Cn2cc(NC(=O)c3cnn4cccnc34)c(-c3cc(Cl)ccc3OC(F)F)n2)CC1 | – | human, single ascending dose | 15 mg, day 4 | relative to: baseline | reticulocyte count change | 11 10⁹/L |
| CC#CC(=O)N[C@H]1CCCN(c2c(F)cc(C(N)=O)c3[nH]c(C)c(C)c23)C1 | – | healthy volunteers | oral, 30 mg single dose, SAD phase I | – | adverse events | 33.3% |
| Cc1ccc(C(=O)N(CCCN)C(c2nc3snc(C)c3c(=O)n2Cc2ccccc2)C(C)C)cc1 (stereo not drawn) | pneumonia grade ≥3 (CTCAE) | human patients | intravenous, 18 mg/day | – | patients with adverse event | 0% |
| COc1cc(C(=O)N2CCC3(CC2)CC(=O)c2c(cnn2C(C)C)C3)cc(-c2ccc(C(=O)O)cc2)n1 | refers to: total cholesterol | human, fasting serum | 3 mg every 12 h, day 13, adjusted geometric mean | relative to: baseline and placebo | placebo-adjusted change from baseline | 2.4% |
| CCCCOC(=O)N1CCN(C(=O)[C@H](CP(=O)(O)O)NC(=O)c2cc(N3CC[C@H](OC)C3)nc(-c3ccccc3)n2)CC1 | refers to: prothrombin time | human, plasma | 16 mg, 24 h post-dose | – | change from baseline | -0.01 ± 0.08 INR |
| CCCCC1=NC2(CCCC2)C(=O)N1Cc1ccc(-c2ccccc2S(=O)(=O)Nc2noc(C)c2C)c(COCC)c1 | – | healthy adult volunteers, plasma | oral, 800 mg, 14 days repeated dosing, fasted, crushed tablet | – | AUC(0-inf) | 96900 ng·h/mL |
| CNCc1ccc(-c2[nH]c3cc(F)cc4c3c2CCNC4=O)cc1 | – | patients | oral, 600 mg twice daily, grade 2 | – | anaemia incidence | 7.7% |
| O=C(O)CSc1nnc(Br)n1-c1ccc(C2CC2)c2ccccc12 | – | KM mouse, chronic hyperuricaemia model | dose not given, day 4 | – | body weight | 29.2 g and 27.8 g and 28.7 g and 31 g and 24.2 g and 25.1 g |
| CC[C@H](C)[C@H](NC(=O)[C@H](Cc1ccccc1)NC(=O)[C@H](CCC(=O)O)NC(=O)[C@H](CCCCNC(=O)COCCOCCNC(=O)COCCOCCNC(=O)CC[C@H](NC(=O)CCCCCCCCCCCCCCCCC(=O)O)C(=O)O)NC(=O)[C@H](C)NC(=O)[C@H](C)NC(=O)[C@H](CCC(N)=O)NC(=O)CNC(=O)[C@H](CCC(=O)O)NC(=O)[C@H](CC(C)C)NC(=O)[C@H](Cc1ccc(O)cc1)NC(=O)[C@H](CO)NC(=O)[C@H](CO)NC(=O)[C@@H](NC(=O)[C@H](CC(=O)O)NC(=O)[C@H](CO)NC(=O)[C@@H](NC(=O)[C@H](Cc1ccccc1)NC(=O)[C@@H](NC(=O)CNC(=O)[C@H](CCC(=O)O)NC(=O)C(C)(C)NC(=O)[C@@H](N)Cc1cnc[nH]1)[C@@H](C)O)[C@@H](C)O)C(C)C)C(=O)N[C@@H](C)C(=O)N[C@@H](Cc1c[nH]c2ccccc12)C(=O)N[C@@H](CC(C)C)C(=O)N[C@H](C(=O)N[C@@H](CCCNC(=N)N)C(=O)NCC(=O)N[C@@H](CCCNC(=N)N)C(=O)NCC(=O)O)C(C)C | 12-lead Holter ECG | healthy humans | subcutaneous, 1.5 mg once weekly, 30 h, steady state | relative to: placebo | QT change from baseline | -15 ms |
| O=C1c2ccncc2C(=O)c2c1[nH]c1ccccc21 | – | Sprague-Dawley rat, male, right ventricle | oral, 5 mg/kg, 24 h | – | tissue concentration | 0.067 ± 0.036 nmol/mg |
| CN(CCC(=O)O)C(=O)c1ccc2c(c1)CC[C@@H]1[C@@H]2CC[C@]2(C)C(c3cncc(F)c3)=CC[C@@H]12 | – | premenopausal women with endometriosis pain, serum | 60 mg twice daily, end of treatment, completers, median | – | indirect bilirubin | 0.44 mg/dL |
| N#Cc1ccc2c(c1)[C@H]1CCCN(C(=O)c3ccc4[nH]cnc4c3)[C@H]1C2 | – | human | 10 mg, day 15 | relative to: baseline | cortisol level change | -148 nmol/L |
| CCOc1c([C@H](C)n2nc(C)c3c(N)ncnc32)cc(Cl)c(F)c1[C@@H]1CNC(=O)C1 | refers to: QTcF ≤450 ms | previously treated B-cell malignancy | oral, 5 mg once daily, baseline QTcF ≤450 ms | – | ECG observations | 100% |
| Cc1cc(C)c(CNC(=O)c2cc(Cl)c3c(c2C)O[C@@](C)([C@H]2CC[C@H](N(C)C)CC2)O3)c(=O)[nH]1 | – | relapsed/refractory NHL patients | oral, 200 mg once daily, onset after cycle 1 day 1 | – | grade ≥3 adverse event Hypophosphatemia | 4.2% |
| O=C(COc1ccc(Cl)cc1)NC12CC(c3nnc([C@H]4C[C@@H](OC(F)(F)F)C4)o3)(C1)C2 | drug-related | healthy human, both sexes | oral, dose not given, 14 days, multiple ascending dose, all doses | – | treatment-emergent adverse events | 85.3% |
| CC/C(=C(\c1ccccc1)c1ccc(OCCN(C)C)cc1)c1ccccc1 | – | male Hartley guinea pigs, anaesthetized | intravenous, 30 mg/kg group, baseline before infusion | – | heart rate | 239 ± 0.8 beats/min |
| COc1ccc2c(c1)CN(C(=O)CCN1CCC(Cc3ccccc3)CC1)CC[S@@+]2[O-] | telemetry | conscious dog | intravenous, 8 mg/kg, 24 h | – | diastolic blood pressure | 81 ± 15 mmHg |
| C=CCN1CC(=O)N2[C@@H](Cc3ccc(O)cc3F)C(=O)N(Cc3cccc(N4CC(N5CCN(CC)CC5)C4)n3)C[C@@H]2N1C(=O)NCc1ccccc1 | – | advanced solid tumour patients | oral, 80 mg twice daily, any grade, dose-escalation | – | treatment-related decreased appetite | 0% |
| C[C@@H]1CN(CC(=O)N2CC(C)(C)c3nc(CO)c(Cc4ccc(F)cc4)cc32)[C@@H](CN2CCOC[C@H]2C)CN1 | – | male cynomolgus monkey | oral, 15 mg/kg | – | oral bioavailability | 19 ± 5% |
| OC[C@H]1O[C@@H](c2ccc(Cl)c(Cc3ccc(O[C@H]4CCOC4)cc3)c2)[C@H](O)[C@@H](O)[C@@H]1O | – | Japanese type 1 diabetes patients, blood | 10 mg, day 28 | relative to: baseline | change in ALT | 0 U/L |
| COc1nc(-c2cc(C)c(N[C@@H](C)c3cc(F)cc(F)c3)nn2)ccc1-n1cnc(C)c1 | – | cynomolgus monkey, male, plasma | oral, 2 mg/kg | relative to: intravenous 1 mg/kg | oral bioavailability | 27.8% |

| SMILES | assay | test system | setting | scale | measurement | value |
| --- | --- | --- | --- | --- | --- | --- |
| CC(=O)Oc1ccccc1C(=O)O | – | male Hartley guinea pigs, anaesthetized | intravenous, 10 mg/kg over 10 min, after infusion | – | heart rate | 253 ± 0.5 beats/min |
| COc1ccc2c(=O)n(C)c(-c3ccccc3)nc2c1 | – | Sprague-Dawley rat, male, skeletal muscle/plasma | oral, 30 mg/kg, 0.5 h | relative to: skeletal muscle over plasma | tissue/plasma ratio | 0.29 |
| CCN1/C(=C/C(C)=O)Sc2ccc(F)cc21 | – | cynomolgus monkey | oral, 100 mg/kg, 1 h post-dose | – | diastolic blood pressure | 74 ± 4 mmHg |
| CCCCN1CCN(C(C)C(=O)Nc2c(C)csc2C(=O)OC)CC1 (stereo not drawn) | – | rat (Sprague-Dawley, male), plasma | subcutaneous, 62.3 mmol/L | – | MRT(0-t) | 1.56 h |
| Nc1ncnc2c1ncn2[C@H]1C[C@@H]2OP(=O)(O)OC[C@H]3O[C@@H](n4cnc5c(N)ncnc54)C[C@@H]3OP(=O)(O)OC[C@H]2O1 | – | non-tumor-bearing mice, serum | intravenous, 1 mg/kg, toxicity study | – | triglycerides | 1.71 ± 0.09 mmol/L |
| CC(C)(C(=O)N1CCOc2c(C#N)cncc2C1)C(F)F | – | human, both sexes | oral, 20 mg single dose | – | subjects with headache TEAE | 16.7% |
| [Cl][89Zr]([Cl])([Cl])[Cl] | radio-TLC | ammonium acetate | concentration not given, 0 h after production, pH 7.0, ambient | – | EDTA-reactive species | ≥ 99.9% |
| CN[C@@H]1COc2c(S(=O)(=O)NC(=O)Nc3c4c(cc5c3CCC5)CCC4)cnn2C1 | – | human, plasma | oral, 900 mg twice daily, D7 | – | predose plasma concentration | 5780 ng/mL |
| O=C(N[C@H](Cc1c[nH]c2ccccc12)C(=O)Nc1ccncc1)c1ccc(-c2ccc(F)c(C(F)(F)F)c2)cc1F | – | Swiss Webster mouse, female, liver | oral, 50 mg/kg, 2 h, 20% HPβCD vehicle | – | concentration | 31.9 µM |
| O=C(O)/C=C/c1ccc(O)c(O[C@@H]2O[C@H](C(=O)O)[C@@H](O)[C@H](O)[C@H]2O)c1 | – | human CSF | concentration not given, mean | – | CSF concentration | not detected |
| CN(C(=O)n1cnc(-c2cccnc2)c1)[C@H]1CC[C@H](O)CC1 | – | Wistar rat, pons | oral, 10 mg/kg/day of BIA 10-2474, 24 h, repeated 5 days | – | concentration | 16.9 ± 1.4 ng/g |
| CCC(=O)N(CCC(c1ccc2c(c1)OCO2)c1ccccc1OC)Cc1ccccc1 (stereo not drawn) | – | mouse, blood | i.p., 60 mg/kg twice daily, 2 weeks | – | albumin/globulin ratio | 0.675 |
| O=C(Nc1nc2cccc(-c3ccc(CN4CCS(=O)(=O)CC4)cc3)n2n1)C1CC1 | refers to: vascular disorders | rheumatoid arthritis patients | oral, 30 mg once daily, 4 weeks, any relatedness | – | treatment-emergent adverse events | 5.9% |
| CCn1cc(C(=O)N2CCOCC2)c(=O)c2cc(NC3Cc4ccccc4C3)cnc21 | – | human, fed | oral suspension, 1200 mg single dose, arithmetic mean | – | AUC(0-inf) | 47400 ng·h/mL |
| O=Cc1ccc(O)cc1 | – | human CSF | concentration not given, mean | – | CSF concentration | not detected |
| CS(=O)(=O)c1ccc([C@@H](O)[C@@H](CF)NC(=O)C(Cl)Cl)cc1 | – | Arbor Acres chickens, plasma | oral, 20 mg/kg, added: quercetin 40 mg/kg pretreatment | – | MRT(0-inf) | 3.87 ± 0.17 h |
| O=C(O)/C=C/c1ccccc1O | – | human CSF | concentration not given, mean | – | CSF concentration | not detected |
| C[C@@H](Oc1ccc(S(C)(=O)=O)cc1C(=O)N1C[C@@H]2C[C@]2(c2cc(C(F)(F)F)on2)C1)C(F)(F)F | LC-MS/MS | young human subjects, plasma | oral, 75 mg once daily, single dose | – | half-life | 37.1 h |
| CNC(=O)c1ccc(-c2cnc3ncc(Cc4ccc5ncccc5c4)n3n2)cc1F | – | Japanese patients | oral, 400 mg, any grade | – | Urticaria treatment discontinuation | 1% |
| Cc1ccc([C@@H]2O[C@H](CO)[C@@H](O)[C@H](O)[C@H]2O)cc1Cc1ccc(-c2ccc(F)cc2)s1 | – | Japanese type 2 diabetes patients | 25 mg, day 17, 24 h urine collection | relative to: baseline | urinary chloride excretion change | -59.3 mEq |
| C[C@@H](Nc1cc(F)cc(F)c1)c1cc(C(=O)N(C)C)cc2c(=O)cc(N3CCOCC3)oc12 | refers to: autoimmune colitis | patients with advanced solid tumours | oral, dose not given, dose finding phase I | – | treatment-related serious adverse events | 0% |
| CCN1CCN(Cc2ccc(Nc3ncc(F)c(-c4cc(F)c5nc6n(c5c4)[C@H](C)CCC6)n3)nc2)CC1 | – | human, plasma | 100 mg multiple dosing, mean | – | AUC(0-tau) | 3320 ng·h/mL |
